Measured values collected from several papers.
Compare with care: the assays were run in different laboratories.
2,3-bisphosphoglycerate-independent phosphoglycerate mutase: 2,3-bisphosphoglycerate-independent phosphoglycerate mutase (Wuchereria bancrofti, UniProt B1P0R4)
Substance-P receptor: Substance-P receptor (Cavia porcellus, UniProt P30547)
Chain of UniProt P30547 (whole entry, looked up): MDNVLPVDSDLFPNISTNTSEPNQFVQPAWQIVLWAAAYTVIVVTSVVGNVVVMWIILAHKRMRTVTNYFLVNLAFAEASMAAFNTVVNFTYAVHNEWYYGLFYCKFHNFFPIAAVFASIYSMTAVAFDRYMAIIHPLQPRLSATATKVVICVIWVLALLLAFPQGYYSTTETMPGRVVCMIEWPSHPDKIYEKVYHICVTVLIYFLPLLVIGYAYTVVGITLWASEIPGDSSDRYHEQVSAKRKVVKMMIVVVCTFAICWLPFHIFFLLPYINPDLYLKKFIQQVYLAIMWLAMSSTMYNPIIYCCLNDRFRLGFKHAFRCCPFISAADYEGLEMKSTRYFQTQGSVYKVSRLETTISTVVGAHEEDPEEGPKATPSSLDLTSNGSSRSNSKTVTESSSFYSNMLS
Melanocortin receptor 3: Melanocortin receptor 3 (Mus musculus, UniProt P33033)
Chain of UniProt P33033 (whole entry, looked up): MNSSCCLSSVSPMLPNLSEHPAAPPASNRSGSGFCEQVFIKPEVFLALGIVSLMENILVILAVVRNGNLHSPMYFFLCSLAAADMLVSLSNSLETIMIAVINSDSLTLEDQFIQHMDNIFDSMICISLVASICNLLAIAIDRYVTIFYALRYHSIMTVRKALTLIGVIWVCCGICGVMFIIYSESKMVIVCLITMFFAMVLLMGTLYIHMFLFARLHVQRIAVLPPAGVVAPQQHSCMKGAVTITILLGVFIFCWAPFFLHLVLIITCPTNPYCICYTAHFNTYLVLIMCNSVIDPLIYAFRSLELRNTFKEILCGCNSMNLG
gpmI: 2,3-bisphosphoglycerate-independent phosphoglycerate mutase (gpmI, Mycoplasma pneumoniae, UniProt P75167)
Chain of UniProt P07947 (whole entry, looked up): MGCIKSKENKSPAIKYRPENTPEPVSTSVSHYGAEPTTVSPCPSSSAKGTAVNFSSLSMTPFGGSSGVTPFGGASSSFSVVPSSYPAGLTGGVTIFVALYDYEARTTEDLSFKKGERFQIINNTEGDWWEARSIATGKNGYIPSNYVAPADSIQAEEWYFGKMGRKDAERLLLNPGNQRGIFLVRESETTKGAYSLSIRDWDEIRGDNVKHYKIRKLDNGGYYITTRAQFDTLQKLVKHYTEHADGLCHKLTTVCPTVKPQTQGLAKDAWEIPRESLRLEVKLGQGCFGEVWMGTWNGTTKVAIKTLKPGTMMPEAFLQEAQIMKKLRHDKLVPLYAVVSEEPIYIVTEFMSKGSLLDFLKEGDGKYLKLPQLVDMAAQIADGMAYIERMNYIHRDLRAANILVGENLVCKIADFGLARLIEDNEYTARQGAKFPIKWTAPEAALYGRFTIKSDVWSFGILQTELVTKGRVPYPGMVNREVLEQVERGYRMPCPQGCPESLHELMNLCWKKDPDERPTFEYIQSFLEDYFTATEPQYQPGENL

C[C@@H](O)[C@@H]1NC(=O)[C@H](CC(=O)O)NC(=O)[C@@H]2CCCN2C(=O)[C@H](Cc2ccc(O)cc2)NC(=O)CSC[C@@H](C(N)=O)NC(=O)[C@H](Cc2c[nH]cn2)NC(=O)[C@H](Cc2c[nH]c3ccccc23)NC(=O)[C@H](CCC(=O)O)NC(=O)[C@H](CC(=O)O)NC(=O)[C@H](Cc2ccc(O)cc2)N(C)C(=O)[C@H](Cc2ccc(O)cc2)NC(=O)[C@H](Cc2c[nH]c3ccccc23)NC(=O)[C@H](Cc2c[nH]c3ccccc23)NC(=O)[C@H](CC(N)=O)NC1=O  AC50 (2,3-bisphosphoglycerate-independent phosphoglycerate mutase; biochemical): 1450 nM
CCCC[C@H](NC(=O)[C@H](Cc1ccccc1)NC(=O)CNC(=O)[C@@H](C)NC(=O)[C@@H](N)Cc1ccc(O)cc1)C(=O)N1CCC[C@H]1C(=O)N[C@@H](CC(C)C)C(=O)N[C@@H](Cc1c[nH]c2ccccc12)C(=O)NCc1cc(C(F)(F)F)cc(C(F)(F)F)c1  Kb (Substance-P receptor; tissue contraction, antagonist): 10 nM
CC(=O)N[C@H]1[C@@H](O[C@H](C)[C@H](NC(=O)[C@H](CO)NC(=O)CNC(=O)[C@@H]2CCCN2C(=O)[C@H](C)NC(=O)[C@@H]2CCCN2C(=O)[C@@H](N)CCCNC(=N)N)C(=O)N[C@@H](C)C(=O)N2CCC[C@H]2C(=O)N2CCC[C@H]2C(=O)N[C@@H](C)C(=O)N[C@@H](Cc2c[nH]cn2)C(=O)NCC(=O)O)O[C@H](CO)[C@H](O)[C@@H]1O  KD ratio (anti-MUC1 Fab 16 A W34F mutant, murine; SPR; baseline: peptide KD over Glyco-T KD): 2.8 fold
CCCC[C@H](NC(=O)[C@H](Cc1ccccc1)NC(=O)CNC(=O)[C@@H](C)NC(=O)[C@@H](N)Cc1ccc(O)cc1)C(=O)N1CCC[C@H]1C(=O)N[C@@H](CC(C)C)C(=O)N[C@@H](CO[C@@H]1O[C@H](CO)[C@@H](O)[C@H](O)[C@H]1O)C(=O)N[C@@H](Cc1c[nH]c2ccccc12)C(=O)NCc1cc(C(F)(F)F)cc(C(F)(F)F)c1  Kb (Substance-P receptor; tissue contraction, antagonist): 8.4 nM
CC(=O)N[C@@H](CCCNC(=N)N)C(=O)N[C@@H](CCCNC(=N)N)C(=O)N[C@H](Cc1ccc(I)cc1)C(=O)N[C@H](C(N)=O)[C@H](c1ccccc1)c1c[nH]c2ccccc12  EC50 (Melanocortin receptor 3; cAMP, agonist, AlphaScreen): 570 nM
CC(C)[C@@H]1NC(=O)[C@H](CCCNC(=N)N)NC(=O)[C@H](Cc2ccc(O)cc2)NC(=O)[C@H](CO)NC(=O)[C@H](Cc2ccc(O)cc2)NC(=O)[C@H](CC(N)=O)NC(=O)CNC(=O)[C@H](Cc2ccc(O)cc2)NC(=O)[C@H](Cc2ccccc2)NC(=O)[C@H](CC(=O)O)NC(=O)[C@H](Cc2ccc(O)cc2)NC(=O)[C@H](Cc2ccccc2)NC(=O)[C@H](Cc2ccc(O)cc2)NC(=O)[C@H](Cc2ccc(O)cc2)NC(=O)CSC[C@@H](C(N)=O)NC(=O)[C@@H]2CCCN2C1=O  AC50 (gpmI; biochemical): 17800 nM
Cl.Cl.Cl.Cl.Cl.Cl.Cl.Cl.Cl.Cl.Cl.Cl.NC[C@@H]1O[C@H](O[C@H]2[C@@H](O)[C@H](O[C@@H]3[C@@H](O)[C@H](N)C[C@H](N)[C@H]3O[C@H]3O[C@H](CN)[C@@H](O)[C@H](O)[C@H]3N)O[C@@H]2Cn2cc(-c3ccc(-c4cn(C[C@H]5O[C@@H](O[C@@H]6[C@@H](O)[C@H](N)C[C@H](N)[C@H]6O[C@H]6O[C@H](CN)[C@@H](O)[C@H](O)[C@H]6N)[C@H](O)[C@@H]5O[C@H]5O[C@@H](CN)[C@@H](O)[C@H](O)[C@H]5N)nn4)cc3)nn2)[C@H](N)[C@@H](O)[C@@H]1O  binding constant (HIV-1 TAR RNA; RNA binding, ethidium bromide displacement; pH 6.8, TAR RNA 200 nM per strand, together with: ethidium bromide 5 µM): 1.46e+08 M⁻¹
CNC(=O)C1CCN(c2ccccc2NC(=O)c2ccc(-c3cc(O)ccc3C)c(C)n2)CC1  Ki (Tyrosine-protein kinase Yes (YES1, Homo sapiens, UniProt P07947); cell-free assay, TR-FRET): 0.2 nM
CC(=O)N[C@@H](CCCNC(=N)N)C(=O)N[C@@H](CCCNC(=N)N)C(=O)N[C@H](C(=O)N1Cc2ccccc2C[C@H]1C(N)=O)[C@H](c1ccccc1)c1c[nH]c2ccccc12  EC50 (Melanocortin receptor 3; cAMP, agonist, AlphaScreen): > 100000 nM
Cl.Cl.Cl.Cl.Cl.Cl.Cl.Cl.Cl.Cl.Cl.Cl.NC[C@@H]1O[C@H](O[C@H]2[C@@H](O)[C@H](O[C@@H]3[C@@H](O)[C@H](N)C[C@H](N)[C@H]3O[C@H]3O[C@H](CN)[C@@H](O)[C@H](O)[C@H]3N)O[C@@H]2Cn2cc(CCCCCCc3cn(C[C@H]4O[C@@H](O[C@@H]5[C@@H](O)[C@H](N)C[C@H](N)[C@H]5O[C@H]5O[C@H](CN)[C@@H](O)[C@H](O)[C@H]5N)[C@H](O)[C@@H]4O[C@H]4O[C@@H](CN)[C@@H](O)[C@H](O)[C@H]4N)nn3)nn2)[C@H](N)[C@@H](O)[C@@H]1O  binding constant (HIV-1 TAR RNA; RNA binding, ethidium bromide displacement; pH 6.8, TAR RNA 200 nM per strand, together with: ethidium bromide 5 µM): 6.6e+07 M⁻¹
CC(C)[C@@H]1NC(=O)[C@H](CCC(N)=O)NC(=O)[C@@H](Cc2ccc(O)cc2)NC(=O)CSC[C@@H](C(N)=O)NC(=O)[C@H](CC(=O)O)NC(=O)[C@H](CCC(=O)O)NC(=O)[C@H](Cc2c[nH]c3ccccc23)NC(=O)[C@@H]2CCCN2C(=O)[C@H](CO)N(C)C(=O)[C@H](C)NC(=O)[C@H](Cc2c[nH]c3ccccc23)NC(=O)[C@H](Cc2c[nH]c3ccccc23)NC(=O)[C@H](C(C)C)NC(=O)[C@H]([C@@H](C)O)NC1=O  AC50 (2,3-bisphosphoglycerate-independent phosphoglycerate mutase; biochemical): 12000 nM
Cl.Cl.Cl.Cl.Cl.Cl.Cl.Cl.Cl.Cl.Cl.Cl.NC[C@@H]1O[C@H](O[C@H]2[C@@H](O)[C@H](O[C@@H]3[C@@H](O)[C@H](N)C[C@H](N)[C@H]3O[C@H]3O[C@H](CN)[C@@H](O)[C@H](O)[C@H]3N)O[C@@H]2Cn2cc(CCCc3cn(C[C@H]4O[C@@H](O[C@@H]5[C@@H](O)[C@H](N)C[C@H](N)[C@H]5O[C@H]5O[C@H](CN)[C@@H](O)[C@H](O)[C@H]5N)[C@H](O)[C@@H]4O[C@H]4O[C@@H](CN)[C@@H](O)[C@H](O)[C@H]4N)nn3)nn2)[C@H](N)[C@@H](O)[C@@H]1O  binding constant (HIV-1 TAR RNA; RNA binding, ethidium bromide displacement; pH 6.8, TAR RNA 200 nM per strand, together with: ethidium bromide 5 µM): 7.08e+07 M⁻¹
COc1ccc(C[C@H]2C(=O)N[C@@H](CC(N)=O)C(=O)N[C@@H](CC(=O)O)C(=O)N[C@@H](CO)C(=O)NCC(=O)N[C@@H](Cc3c[nH]c4ccccc34)C(=O)N(C)[C@@H](Cc3ccc(O)cc3)C(=O)N[C@@H](CC(N)=O)C(=O)N[C@@H]([C@@H](C)O)C(=O)N(C)[C@@H](Cc3ccccc3)C(=O)N[C@H](C(N)=O)CSCC(=O)N[C@@H](Cc3ccc(O)cc3)C(=O)N2C)cc1  AC50 (gpmI; biochemical): 42700 nM
CC(C)C[C@H](NC(=O)[C@@H]1CCCN1C(=O)[C@H](CO[C@@H]1O[C@H](CO)[C@@H](O)[C@H](O)[C@H]1O)NC(=O)[C@H](Cc1ccccc1)NC(=O)CNC(=O)[C@@H](C)NC(=O)[C@@H](N)Cc1ccc(O)cc1)C(=O)N[C@@H](Cc1c[nH]c2ccccc12)C(=O)NCc1cc(C(F)(F)F)cc(C(F)(F)F)c1  Kb (Substance-P receptor; tissue contraction, antagonist): 2.8 nM
CC(C)[C@@H]1NC(=O)[C@H](CO)NC(=O)[C@H](Cc2c[nH]c3ccccc23)NC(=O)[C@H](CCC(=O)O)NC(=O)[C@H](CC(=O)O)NC(=O)[C@H](Cc2ccc(O)cc2)NC(=O)[C@H](Cc2ccc(O)cc2)NC(=O)[C@H](Cc2c[nH]c3ccccc23)NC(=O)[C@H](Cc2c[nH]c3ccccc23)NC(=O)[C@H](CC(=O)O)NC(=O)CNC(=O)[C@H](CO)NC(=O)[C@@H](Cc2ccc(O)cc2)NC(=O)CSC[C@@H](C(N)=O)NC(=O)CNC(=O)[C@H](Cc2ccccc2)NC(=O)[C@H](C)NC1=O  AC50 (2,3-bisphosphoglycerate-independent phosphoglycerate mutase; biochemical): 56200 nM
CS(=O)(=O)c1cccc(OCCCC(=O)NC2CC3CC3C2O)c1 (stereo not shown)  EC50 (Transcriptional activator protein LasR (lasR, Pseudomonas aeruginosa, UniProt P25084, Y93F); reporter gene, agonist; Escherichia coli lasB-lux reporter): > 100000 nM

Repeated from above:
CNC(=O)C1CCN(c2ccccc2NC(=O)c2ccc(-c3cc(O)ccc3C)c(C)n2)CC1  Ki (Tyrosine-protein kinase Yes (YES1, Homo sapiens, UniProt P07947); cell-free assay, TR-FRET): 0.2 nM
